Results of several laboratories.
A part holds a random share of what one study measured. Substitutions count along the parent as printed.
Sequence of UniProt P07333 (whole entry, looked up): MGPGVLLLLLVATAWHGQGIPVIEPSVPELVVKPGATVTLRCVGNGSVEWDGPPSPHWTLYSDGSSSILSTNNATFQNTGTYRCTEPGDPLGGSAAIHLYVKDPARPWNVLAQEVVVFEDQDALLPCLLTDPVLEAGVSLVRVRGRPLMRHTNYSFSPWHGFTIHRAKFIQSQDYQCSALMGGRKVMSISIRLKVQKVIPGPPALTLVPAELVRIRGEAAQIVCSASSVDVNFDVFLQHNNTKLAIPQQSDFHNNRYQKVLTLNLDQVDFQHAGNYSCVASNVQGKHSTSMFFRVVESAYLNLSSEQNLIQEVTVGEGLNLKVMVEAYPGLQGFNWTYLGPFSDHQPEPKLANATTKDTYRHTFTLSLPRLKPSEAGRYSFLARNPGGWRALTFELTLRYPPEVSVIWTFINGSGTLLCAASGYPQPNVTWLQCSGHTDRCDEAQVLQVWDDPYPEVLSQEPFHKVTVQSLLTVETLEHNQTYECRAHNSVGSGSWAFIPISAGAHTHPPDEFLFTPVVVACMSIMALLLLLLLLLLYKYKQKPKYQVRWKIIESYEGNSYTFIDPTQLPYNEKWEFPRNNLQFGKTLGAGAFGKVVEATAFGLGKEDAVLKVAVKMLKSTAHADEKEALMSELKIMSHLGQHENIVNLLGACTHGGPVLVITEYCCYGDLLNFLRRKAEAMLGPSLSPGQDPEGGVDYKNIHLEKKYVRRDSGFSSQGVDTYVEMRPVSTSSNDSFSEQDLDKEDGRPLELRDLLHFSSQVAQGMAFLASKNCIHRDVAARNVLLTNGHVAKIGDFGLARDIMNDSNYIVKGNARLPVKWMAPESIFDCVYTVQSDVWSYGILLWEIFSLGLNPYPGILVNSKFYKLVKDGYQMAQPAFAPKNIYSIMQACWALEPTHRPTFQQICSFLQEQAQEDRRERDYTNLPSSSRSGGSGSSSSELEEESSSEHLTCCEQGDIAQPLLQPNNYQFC
Sequence of UniProt P11229 (whole entry, looked up): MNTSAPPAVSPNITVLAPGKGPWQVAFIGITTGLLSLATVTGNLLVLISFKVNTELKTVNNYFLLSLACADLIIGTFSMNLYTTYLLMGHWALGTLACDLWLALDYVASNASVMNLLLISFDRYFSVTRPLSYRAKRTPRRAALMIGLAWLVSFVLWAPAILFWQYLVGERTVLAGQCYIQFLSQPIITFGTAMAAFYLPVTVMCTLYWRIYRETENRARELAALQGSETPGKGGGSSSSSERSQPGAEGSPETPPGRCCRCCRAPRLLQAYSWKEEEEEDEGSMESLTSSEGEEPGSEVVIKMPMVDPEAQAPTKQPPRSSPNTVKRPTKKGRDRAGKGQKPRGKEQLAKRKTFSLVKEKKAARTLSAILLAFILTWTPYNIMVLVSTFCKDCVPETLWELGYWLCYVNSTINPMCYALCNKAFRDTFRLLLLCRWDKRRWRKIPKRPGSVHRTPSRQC

Study 1
Target: CEP164, C-terminal peptide (human)
Method: DHFR complementation, deep sequencing
Medium: yeast
Notes: single substitutions, model-inferred values
Baseline: wild type
Direction: higher = weaker binding
Measurement: binding free energy change
Parent: PDZK1, PDZ domain 2 (human); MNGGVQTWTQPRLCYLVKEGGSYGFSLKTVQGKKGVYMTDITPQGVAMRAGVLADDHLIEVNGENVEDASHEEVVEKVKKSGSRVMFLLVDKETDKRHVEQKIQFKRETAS; partner HNRVKVYRF
Q31S: 0.044 kcal/mol
R107S: -0.142 kcal/mol
V85Q: 1.48 kcal/mol
L89S: 1.06 kcal/mol
V85A: 1.17 kcal/mol
E60Y: 0.535 kcal/mol
K33M: 0.0443 kcal/mol
D91R: -0.0297 kcal/mol

Study 2
Target: TAR DNA-binding protein 43, full length, His tag (TARDBP, Homo sapiens, UniProt Q13148, residues 1-414)
Method: RNA Bind-n-Seq
Molecule type: RNA
Medium: in vitro
Tested at: 20 nM
Notes: 6-mer, flanks averaged, single round
Together with: 150 mM LiCl
Baseline: input library
Direction: higher = stronger binding
Measurement: 6-mer enrichment (R)
GAUAGA: 0.935
GGGAUU: 1
GGCGGA: 1.11
GAUUAA: 0.86
GCCCGG: 1.03
AUAAGG: 0.955
ACAAUG: 0.879
CACGUU: 0.91

Mixed results
CC(C)n1cnc(-c2ccc(F)cc2)c1-c1ncc(C(=O)Nc2ccc(N3CCN(C)CC3)cc2)[nH]1  patients with liver injury TEAE (phase 2a clinical trial; patients with idiopathic pulmonary fibrosis; 30 mg once daily): 0%
N#C/C(=C(/N)SC1C=CC=CC1)c1cccc(C(O)c2ccncc2)c1 (stereo not shown)  remaining activity (Macrophage colony-stimulating factor 1 receptor (CSF1R, Homo sapiens, UniProt P07333); enzyme activity, inhibitor; 0.5 µM; baseline: control): 101%
CN1CCN(C(=O)C(C)(C)c2ccc(C(=O)Nc3cn4cc(-c5cc(C(C)(C)C)cc(C(C)(C)C)c5)ccc4n3)cc2)CC1  Ki (Muscarinic acetylcholine receptor M1 (CHRM1, Homo sapiens, UniProt P11229); binding): 1.34 µM

Some of these lines once more (study 1):
Q31S: 0.044 kcal/mol
E60Y: 0.535 kcal/mol
